Assay results of several laboratories.
A part holds a random share of what one study measured. Positions count from the first letter of the parent shown.

Series 1
Target: Histone acetyltransferase KAT6A, both winged helices, GST fusion (KAT6A, Homo sapiens, UniProt Q92794, residues 1-181)
Technique: protein binding microarray
Molecule type: double-stranded DNA, one strand shown
Sample: in vitro
Concentration: not given
Setting: 8-mer, flanks averaged, mean of 2 arrays, mostly near background
Reference: not given
Direction: higher = stronger binding
Target sequence (chain): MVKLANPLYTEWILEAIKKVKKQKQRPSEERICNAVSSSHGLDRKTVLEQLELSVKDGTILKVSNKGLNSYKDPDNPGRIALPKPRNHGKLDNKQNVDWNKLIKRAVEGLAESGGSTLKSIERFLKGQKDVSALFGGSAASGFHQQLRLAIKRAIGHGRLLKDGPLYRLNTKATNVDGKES
The E-score of `CCGTATAG` is reported as 0.15.
For `TCAAGTCA`, the E-score was -0.212.
For `CTCTATTC`, the E-score was -0.00724.
`CGTAGTGA` gave an E-score of 0.0488.
`TCACTAGA` has an E-score of -0.0513.
For `AGCAACAT`, the E-score was 0.00956.
`GCTGACTA` gave an E-score of -0.0297.
`ACGTTCTA` has an E-score of -0.116.
The E-score of `CGTGAGGC` is reported as 0.00926.
The E-score of `ACGGGAGT` is reported as 0.15.
The E-score of `ACCCGAAT` is reported as 0.108.
The E-score of `CATAGGTA` is reported as -0.219.
The E-score of `CACACGCC` is reported as 0.13.
For `TGTCGACA`, the E-score was -0.135.
The E-score of `AACTTAGC` is reported as -0.148.
With `AGGGCAAA` the E-score was -0.0807.
The E-score of `AACTGCTG` is reported as -0.136.
`CATAGTTA` has an E-score of -0.0617.
For `CCGTCTGC`, the E-score was 0.233.
For `AGCGTCGC`, the E-score was 0.307.
With `GTGGCTTA` the E-score was -0.0429.
`TGGACCAA` gave an E-score of -0.0425.
The E-score of `CGGGGAGC` is reported as 0.173.

Series 2
Target: ABI1, truncated, D143A, DHFR fusion (Arabidopsis thaliana)
Technique: DHFR PCA, deep sequencing
Sample: yeast
Setting: methotrexate growth selection, single substitutions
With: (+)-ABA 0.0091 µM
Reference: wild-type fitted maximum
Direction: higher = stronger binding
Starting sequence: PYL1, truncated, DHFR fusion (Arabidopsis thaliana); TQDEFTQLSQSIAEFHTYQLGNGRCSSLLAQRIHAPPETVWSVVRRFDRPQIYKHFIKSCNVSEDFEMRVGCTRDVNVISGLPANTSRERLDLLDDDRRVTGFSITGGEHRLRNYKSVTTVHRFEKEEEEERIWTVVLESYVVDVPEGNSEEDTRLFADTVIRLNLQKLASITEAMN; partner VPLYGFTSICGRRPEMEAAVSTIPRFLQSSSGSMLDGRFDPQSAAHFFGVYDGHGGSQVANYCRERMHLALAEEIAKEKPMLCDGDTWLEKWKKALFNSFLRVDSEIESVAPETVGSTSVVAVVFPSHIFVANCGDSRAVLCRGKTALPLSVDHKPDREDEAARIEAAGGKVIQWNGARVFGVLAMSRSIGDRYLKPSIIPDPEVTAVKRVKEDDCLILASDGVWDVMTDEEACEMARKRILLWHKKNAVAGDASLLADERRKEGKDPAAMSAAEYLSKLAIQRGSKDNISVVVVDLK
Under “relative binding score”, `Q31W` is recorded as 2.67%.
Under “relative binding score”, `V70H` is recorded as 0.177%.
Under “relative binding score”, `I33F` is recorded as -5.62%.
For `E147Y`, “relative binding score” read 10.4%.
Under “relative binding score”, `R32Q` is recorded as 9.27%.
`S87C` — result for “relative binding score”: 37.7%.
Under “relative binding score”, `K116C` is recorded as 3.95%.
`E152A` — result for “relative binding score”: 17.9%.
`K168M` — result for “relative binding score”: -0.576%.
Under “relative binding score”, `D65Y` is recorded as 3.3%.
For `G21F`, “relative binding score” read -1%.
For `N22S`, “relative binding score” read 40%.
`G108D`: “relative binding score” -4.26%.
`I133P`: “relative binding score” 49%.
Under “relative binding score”, `T73K` is recorded as -3.68%.
`G21T`: “relative binding score” 34.8%.

Series 3
Target: CCNB2, cyclin fold, Cln2 fusion (human)
Technique: yeast growth competition, sequencing
Sample: yeast
Setting: weak parent motif
Reference: not given
Direction: higher = stronger binding
Starting sequence: PKN2 docking peptide (human); VSAVQKLDFSDTM
`L7M` — result for “normalised enrichment score”: -0.231.
`V1F`: “normalised enrichment score” 0.396.
`S2F` — result for “normalised enrichment score”: -0.0131.
`L7F` — result for “normalised enrichment score”: -0.137.
`K6T`: “normalised enrichment score” 0.218.
`F9C` — result for “normalised enrichment score”: -0.374.
`D11L` — result for “normalised enrichment score”: 0.0887.
Under “normalised enrichment score”, `V1N` is recorded as 0.467.
For `S10A`, “normalised enrichment score” read -0.277.
Under “normalised enrichment score”, `V1K` is recorded as 0.217.
`D11V`: “normalised enrichment score” -0.112.
For `D8L`, “normalised enrichment score” read 0.235.
`D8E`: “normalised enrichment score” -0.261.
For `T12Q`, “normalised enrichment score” read -0.284.
`F9T`: “normalised enrichment score” -0.142.
Under “normalised enrichment score”, `K6Q` is recorded as 0.102.
`S2Y`: “normalised enrichment score” 0.0301.
Under “normalised enrichment score”, `D8N` is recorded as -0.252.
Under “normalised enrichment score”, `A3G` is recorded as -0.459.
`A3I` — result for “normalised enrichment score”: 1.59.
`V4C` — result for “normalised enrichment score”: -0.364.
`D11A` — result for “normalised enrichment score”: -0.0321.
Under “normalised enrichment score”, `D8P` is recorded as -0.0863.
`L7C` — result for “normalised enrichment score”: -0.278.
Under “normalised enrichment score”, `M13P` is recorded as -0.164.

Series 4
Target: Centromere-binding protein 1, full length, N-terminal tag (CBF1, Saccharomyces cerevisiae, UniProt P17106, residues 1-351)
UniProt P17106, sequence (whole entry, looked up): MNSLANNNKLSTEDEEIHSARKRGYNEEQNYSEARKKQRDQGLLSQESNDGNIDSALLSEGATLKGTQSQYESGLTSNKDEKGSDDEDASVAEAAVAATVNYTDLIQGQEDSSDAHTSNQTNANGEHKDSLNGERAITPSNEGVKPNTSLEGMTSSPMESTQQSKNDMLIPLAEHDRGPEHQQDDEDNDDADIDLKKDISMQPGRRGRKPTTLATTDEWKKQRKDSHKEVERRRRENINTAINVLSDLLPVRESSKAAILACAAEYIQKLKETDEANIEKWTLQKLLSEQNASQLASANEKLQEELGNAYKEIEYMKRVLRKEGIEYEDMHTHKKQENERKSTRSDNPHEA
Technique: protein-binding microarray
Molecule type: double-stranded DNA, one strand shown
Sample: in vitro
Concentration: 0.8 µM
Setting: whole 60-bp probe, no competitor
Direction: higher = stronger binding
The fluorescence intensity of `CTAAGTAAAAAAAGTCACGCAATAAGCTCTCAATTCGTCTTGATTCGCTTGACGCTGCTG` is reported as 849 a.u.
`GAATTGCAGTGGTTAGCCGTGATTAGTAGATAGTAGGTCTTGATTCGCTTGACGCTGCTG` gave a fluorescence intensity of 572 a.u.
`CTACTTGCAAAAGGTCACATGCTTATAATCAACTTCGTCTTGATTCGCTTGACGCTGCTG` has a fluorescence intensity of 5770 a.u.
The fluorescence intensity of `GAAATCTCGGAAGAACACCACATGATGCAAGTTTAGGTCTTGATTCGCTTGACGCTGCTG` is reported as 1010 a.u.
`CCTAACTACTATAGCCTCATGACATAGCTTCGTACAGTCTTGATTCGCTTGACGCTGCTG` has a fluorescence intensity of 558 a.u.
The fluorescence intensity of `GAACTCCCAAAATATCAGCTGACGTTTTCATATTAGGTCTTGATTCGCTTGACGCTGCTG` is reported as 1480 a.u.
For `CTACCAGAGATGCTCCACGTGAAAGATCACCAATTCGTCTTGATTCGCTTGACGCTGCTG`, the fluorescence intensity was 1460 a.u.
`CTATAATTTTTCTCCTTCGTGACCTCGGAGCTGTTCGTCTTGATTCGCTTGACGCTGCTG` gave a fluorescence intensity of 647 a.u.
With `CTACTAAACCCAGCTCACGTTCCCTATTAGTGGTTCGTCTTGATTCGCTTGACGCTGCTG` the fluorescence intensity was 673 a.u.
`GAATCCGCTCGTCGTGGTGGCATGCGCTTTTTTTAGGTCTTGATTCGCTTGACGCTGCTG` gave a fluorescence intensity of 644 a.u.
With `CTACATTTTTAACGTGGTGAGAAAACCCGAAATTTCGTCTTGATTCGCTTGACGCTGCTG` the fluorescence intensity was 632 a.u.
`GAACCTATTATTGGTCATGATGCCACTTTTTACTAGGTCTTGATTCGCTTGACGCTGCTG` has a fluorescence intensity of 707 a.u.
`CTACCATATTGTTACCACCACCTCCCCGTGATTTTCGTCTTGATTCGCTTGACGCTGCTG` gave a fluorescence intensity of 1150 a.u.
For `CTACGTCATGAATAGCACGTTTACCTATACGAATTCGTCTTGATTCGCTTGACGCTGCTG`, the fluorescence intensity was 621 a.u.
For `CTAATCCAAAATTTTCACACCTGAGATATATTGTTCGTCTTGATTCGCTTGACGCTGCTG`, the fluorescence intensity was 542 a.u.
The fluorescence intensity of `GAAGGACGTCGTAATCACGGTTACTAAGTACTTTAGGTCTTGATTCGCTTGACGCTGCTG` is reported as 534 a.u.
The fluorescence intensity of `CTAGCATATTTGTAAAACGTGCAAAAAAGTAAATTCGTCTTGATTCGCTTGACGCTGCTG` is reported as 778 a.u.
With `CTATCTTGTTTCAGGCACGTTCATGTTAGTGTCTTCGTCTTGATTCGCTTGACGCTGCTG` the fluorescence intensity was 704 a.u.
`CTATCTAGTTTGGGTCACCTGATGCAGAATTGGTTCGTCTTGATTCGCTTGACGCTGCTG` has a fluorescence intensity of 10000 a.u.

Series 5
Target: Interferon regulatory factor 5, full length, phosphomimetic (IRF5, Homo sapiens, UniProt Q13568-2, residues 1-514, K96S/S451D/S453D/S456D/S462D)
Technique: protein-binding microarray
Molecule type: double-stranded DNA, one strand shown
Sample: in vitro
Concentration: 250 nM
Setting: 60-bp whole probe
With: salmon DNA 0.4 mg/ml
Reference: random background probes
Direction: higher = stronger binding
Shared flanks, not repeated: GCCTAGCAC … GTCTTGATTCGCTTGACGCTGCTG
`TCAGATTCCAGTTTCGATTAGTGCTAG` gave a log fluorescence of 9.46 z-score.
With `GACGATCTCGGACTGGGGACGTGCTAG` the log fluorescence was -0.48 z-score.
For `GACCAACTGGGGTATCGAGACGTGCTA`, the log fluorescence was 0.168 z-score.
With `GACGCTCTCGGACTGGGGACGTGCTAG` the log fluorescence was -0.554 z-score.
The log fluorescence of `TCATTTTTTTTTTCTACACTGTGCTAG` is reported as 1.29 z-score.
For `TTAGTTTTCGGGTTTCGGTTAGTGCTA`, the log fluorescence was 9.61 z-score.
`TTTAGATTTTTTTTCCTAATGTGCTAG` has a log fluorescence of 0.871 z-score.
The log fluorescence of `GACGGACTGGACACTTGGGACGTGCTA` is reported as -0.503 z-score.
With `GACCGTTTCCTTTTCCTGACGTGCTAG` the log fluorescence was 1.23 z-score.
`TCATGTTTGAGAAATCAGACTGTGCTA` has a log fluorescence of 0.167 z-score.
`TTAGGTTTCCTACTGCCTTAGTGCTAG` gave a log fluorescence of 0.249 z-score.
`GACGGTCTCCTTATCCTGAAGTGCTAG` gave a log fluorescence of -0.0799 z-score.
The log fluorescence of `TTAGATATCGGGTCTGGATTAGTGCTA` is reported as 1.58 z-score.
`GACGATTTCGGTCTCGAGACGTGCTAG` gave a log fluorescence of 6.84 z-score.
`TTAGATATCAGACTAGATTAGTGCTAG` has a log fluorescence of 0.392 z-score.
The log fluorescence of `GACGGTATCCTTTTCCCGACGTGCTAG` is reported as 0.777 z-score.
`TCATATACCCATGTAGAACTGTGCTAG` gave a log fluorescence of 0.193 z-score.
For `GACGGCATCGGGTATCGGGACGTGCTA`, the log fluorescence was 0.26 z-score.
`TCATGCATCTGATTTCTCACTGTGCTA` has a log fluorescence of 0.822 z-score.

For quick reference, copied from above (series 1):
The E-score of `CGTGAGGC` is reported as 0.00926.
The E-score of `ACGGGAGT` is reported as 0.15.
The E-score of `ACCCGAAT` is reported as 0.108.
The E-score of `CATAGGTA` is reported as -0.219.
The E-score of `CACACGCC` is reported as 0.13.
For `TGTCGACA`, the E-score was -0.135.
The E-score of `AACTTAGC` is reported as -0.148.
With `AGGGCAAA` the E-score was -0.0807.
The E-score of `AACTGCTG` is reported as -0.136.
`CATAGTTA` has an E-score of -0.0617.
For `CCGTCTGC`, the E-score was 0.233.
For `AGCGTCGC`, the E-score was 0.307.
With `GTGGCTTA` the E-score was -0.0429.
